{"data": "Measured values gathered from unrelated publications", "note": "A part holds a random share of what one study measured."}
{"data": "Set 1", "target": "Ras GTPase-activating protein-binding protein 1, full length (G3BP1, Homo sapiens, UniProt Q13283)", "method": "RNA Bind-n-Seq", "form": "RNA", "sample": "in vitro", "tested at": "200 nM", "notes": "whole 134-nt RNA, ends assumed", "added": "150 mM LiCl", "relative to": "input library", "reading": "higher = stronger binding", "all molecules": "7-deaza-guanosine replaces G", "chain of UniProt Q13283 (whole entry, looked up)": "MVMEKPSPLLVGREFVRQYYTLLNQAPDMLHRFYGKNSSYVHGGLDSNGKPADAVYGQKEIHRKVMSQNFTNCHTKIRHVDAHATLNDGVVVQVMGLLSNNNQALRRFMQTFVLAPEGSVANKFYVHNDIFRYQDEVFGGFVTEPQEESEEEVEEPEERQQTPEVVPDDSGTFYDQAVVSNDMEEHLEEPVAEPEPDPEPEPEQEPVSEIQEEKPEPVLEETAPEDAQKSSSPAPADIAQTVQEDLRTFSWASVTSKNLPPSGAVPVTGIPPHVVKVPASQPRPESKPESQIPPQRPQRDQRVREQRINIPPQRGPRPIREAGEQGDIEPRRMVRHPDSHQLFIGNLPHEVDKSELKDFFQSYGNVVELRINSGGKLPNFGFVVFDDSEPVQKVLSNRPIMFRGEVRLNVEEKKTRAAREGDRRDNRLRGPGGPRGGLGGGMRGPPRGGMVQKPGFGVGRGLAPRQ"}
{"Strand": "GGGAGUUCUACAGUCCGACGAUCUUGACUAUAUUGUGGAGUAUGACUAUGAUGCUGUACAUGAUGAUGAAUUAACUAUUCGAGUUGGAGAAAUCAUCAGGAAUGUGAAAAAGCUGGAAUUCUCGGGUGUCAAGG", "log2 enrichment": -2.3}
{"Strand": "GGGAGUUCUACAGUCCGACGAUCAGUCCUGUGCUACACAUCGUAUGUACCGAAUCGGGGUGGGGUUUGGGGUUUUUGGGGAAAGUAUUAUGUUACGCCGUUCGGAUCUGCACUUGGAAUUCUCGGGUGUCAAGG", "log2 enrichment": -0.417}
{"Strand": "GGGAGUUCUACAGUCCGACGAUCUUUUCAAGGGGGCCCCAACUGGGGCCGCCUUGUAGCCUUCUUUGUCUUUGGGGCUGCACUGUGUGCUGAGAGUGUCAACAAGGAGAUGGAUGGAAUUCUCGGGUGUCAAGG", "log2 enrichment": -0.542}
{"data": "Set 2", "target": "Interferon regulatory factor 5, full length, phosphomimetic (IRF5, Homo sapiens, UniProt Q13568-2, residues 1-514, S451D/S453D/S456D/S462D)", "method": "protein-binding microarray", "form": "double-stranded DNA, one strand shown", "sample": "in vitro", "tested at": "940 nM top", "notes": "60-bp whole probe", "added": "salmon DNA 0.4 mg/ml", "relative to": "random background probes", "reading": "higher = stronger binding", "all sequences stand within": "GCCTAGCAC … GTCTTGATTCGCTTGACGCTGCTG"}
{"Strand": "TTAGGTATCCGTATCCTTTAGTGCTAG", "fitted relative affinity [z-score]": 0.915}
{"Strand": "GACGGACTGCTACTGGTGACGTGCTAG", "fitted relative affinity [z-score]": -0.538}
{"Strand": "AGCCTTATCCCTAATCTCAGCGTGCTA", "fitted relative affinity [z-score]": 0.716}
{"Strand": "GAGGGTTTCCTTATCCTGACGTGCTAG", "fitted relative affinity [z-score]": 0.954}
{"Strand": "GACGGTTCCGGTTTAGGGACGTGCTAG", "fitted relative affinity [z-score]": 3.74}
{"Strand": "TTAGGTCTTCTTCTCCTTTAGTGCTAG", "fitted relative affinity [z-score]": 0.769}
{"data": "Set 3", "target": "RNA binding protein fox-1 homolog 2, RRM domain, GST-SBP tag (RBFOX2, Homo sapiens, UniProt O43251-10, residues 100-194)", "method": "RNA Bind-n-Seq", "form": "RNA", "sample": "in vitro", "tested at": "365 nM", "notes": "natural RNA segment, single round, ends assumed", "relative to": "no-protein control", "reading": "higher = stronger binding", "all sequences stand within": "GGGAGUUCUACAGUCCGACGAUC … UGGAAUUCUCGGGUGCCAA"}
{"Strand": "UUGCUGUGUAGUCUUGGUGUGGAAAUUUGAAUUCUGCUUUUCUCUACUAAUCUGAAGUGCUCCGUGAUGUGUGUAUGUGUCUUUCUAACUUCUAAUAAACUCACUCCAAC", "RBNS enrichment (R)": 1.47}
{"Strand": "GAAUGACAGUCCGUCAAAACAGAUUGUUUGCAAAGGGGAGGCAUCAGUGUCCUUGGCAGGCUGAUUUCUAGGUAGGAAAUGUGGUAGCCUCACUUUUAAUGAACAAAUGG", "RBNS enrichment (R)": 1.01}
{"Strand": "UGGUAGCUAAUUUUUCUUUACCUAUUUUCUAAUGUCAUGAUUCCUGUUUGCCCAAUGGAUCAUUUGUAUGUUAACCACUGUAUGUAACCAACCCUUAUCUGGCAACAUAA", "RBNS enrichment (R)": 2.7}
{"Strand": "UCUCCACAUAGACUCUUGAAAUAGCCAUUUCAGGGGAGGAAAGGGUUGGGGUUUUCUUUGUUUGUUUGUUUGUUUCCCCCUUUACUACCUGUUCUUGUAGAUCUAGCUCC", "RBNS enrichment (R)": 11.2}
{"Strand": "UCCUCUGCUUGCUGGAACAUUCUAACAUUUACACUUUUGUUAUAAGCUAUUUAAAACCAGUAAGGAGACUUGAAAUUCAGAAAAUCAACACAUUUUUAAAUGACUAACUU", "RBNS enrichment (R)": 0.407}
{"data": "Other studies, line by line"}
{"Molecule": "PhoQ, residues 284 288 289 292 302 303 AMDMFI", "target": "PhoP, residues 12 14 15 18 19 NQGLL (Escherichia coli, UniProt P23836)", "assay": "Sort-seq, refers to: YFP reporter", "test system": "E. coli", "conditions": "PhoQ-PhoP variant library, added: 10 µM Mg2+", "scale": "relative to: high Mg2+ state, higher = stronger signaling", "endpoint": "fold induction", "value": 1.77}
{"note": "A few entries again (set 2):"}
{"Strand": "GAGGGTTTCCTTATCCTGACGTGCTAG", "fitted relative affinity [z-score]": 0.954}
